Measured values of several laboratories.
Protocols differ between the studies behind these lines. ± gives the spread as reported.

SMILES = CC[C@H](C)[C@H](NC(=O)[C@H](Cc1ccccc1)NC(=O)[C@H](CCC(=O)O)NC(=O)[C@H](CCCCNC(=O)COCCOCCNC(=O)COCCOCCNC(=O)CC[C@H](NC(=O)CCCCCCCCCCCCCCCCC(=O)O)C(=O)O)NC(=O)[C@H](C)NC(=O)[C@H](C)NC(=O)[C@H](CCC(N)=O)NC(=O)CNC(=O)[C@H](CCC(=O)O)NC(=O)[C@H](CC(C)C)NC(=O)[C@H](Cc1ccc(O)cc1)NC(=O)[C@H](CO)NC(=O)[C@H](CO)NC(=O)[C@@H](NC(=O)[C@H](CC(=O)O)NC(=O)[C@H](CO)NC(=O)[C@@H](NC(=O)[C@H](Cc1ccccc1)NC(=O)[C@@H](NC(=O)CNC(=O)[C@H](CCC(=O)O)NC(=O)C(C)(C)NC(=O)[C@@H](N)Cc1cnc[nH]1)[C@@H](C)O)[C@@H](C)O)C(C)C)C(=O)N[C@@H](C)C(=O)N[C@@H](Cc1c[nH]c2ccccc12)C(=O)N[C@@H](CC(C)C)C(=O)N[C@H](C(=O)N[C@@H](CCCNC(=N)N)C(=O)NCC(=O)N[C@@H](CCCNC(=N)N)C(=O)NCC(=O)O)C(C)C; system = Japanese subjects; setting = subcutaneous once weekly, 1.0 mg, median; endpoint = tmax at steady state; result = 36 h
SMILES = COc1ccc(Oc2cc(N(C)CCOc3ccc(CC4SC(=O)NC4=O)cc3)ncn2)cc1 (stereo not drawn); system = healthy male, plasma; setting = oral, alone or with empagliflozin; endpoint = Tmax at steady state; result = < 2.5 h
SMILES = COc1cc(OC)c(/C=C/S(=O)(=O)Cc2ccc(OC)c(NCC(=O)O)c2)c(OC)c1; system = cancer patients, phase I, plasma; setting = oral, 280 mg twice daily, day 21 cycle 1; endpoint = Tmax; result = 0.83 ± 0.58 h
SMILES = Oc1ccc2c3c(cnc2c1)-c1ccc(C(F)(F)F)cc1O[C@@H]3c1ccc(OCCN2CC(CF)C2)cc1; assay = measured: total radioactivity; system = healthy women, fasted, plasma; setting = oral, 400 mg [14C]-labelled, single dose, median; endpoint = tmax; result = 2 h
SMILES = O=C(NC[C@H]1CN(c2ccc(N3CCOCC3=O)cc2)C(=O)O1)c1ccc(Cl)s1; system = renal impairment patients; setting = oral, 10 mg; scale = relative to: normal renal function; endpoint = Tmax decrease; result = ~1 h
SMILES = Cc1ccc(NC(=O)c2ccc(CN3CCN(C)CC3)cc2)cc1Nc1nccc(-c2cncc(-c3oncc3C)c2)n1; system = healthy volunteers, plasma; setting = oral, 200.0 mg once daily, day 7, 7-day dosing, mean; endpoint = Tmax; result = 5 h
SMILES = CC(C)(CC(=O)N1CCCC1)NCC(=O)N1C[C@@H](F)C[C@H]1C#N; system = Chinese type 2 diabetes patients, plasma; setting = oral, 200 mg once daily, multiple doses; endpoint = Tmax at steady state; result = 4 h
SMILES = C[C@@H](N)c1cc(Cl)ccc1Cn1c(=S)[nH]c(=O)c2[nH]ccc21; system = healthy Japanese volunteers, plasma; setting = oral, 5 mg once daily, day 1, median; endpoint = tmax; result = 1.5 h
SMILES = CC[C@H](C)[C@H](NC(=O)[C@H](Cc1ccccc1)NC(=O)[C@H](CCC(=O)O)NC(=O)[C@H](CCCCNC(=O)COCCOCCNC(=O)COCCOCCNC(=O)CC[C@H](NC(=O)CCCCCCCCCCCCCCCCC(=O)O)C(=O)O)NC(=O)[C@H](C)NC(=O)[C@H](C)NC(=O)[C@H](CCC(N)=O)NC(=O)CNC(=O)[C@H](CCC(=O)O)NC(=O)[C@H](CC(C)C)NC(=O)[C@H](Cc1ccc(O)cc1)NC(=O)[C@H](CO)NC(=O)[C@H](CO)NC(=O)[C@@H](NC(=O)[C@H](CC(=O)O)NC(=O)[C@H](CO)NC(=O)[C@@H](NC(=O)[C@H](Cc1ccccc1)NC(=O)[C@@H](NC(=O)CNC(=O)[C@H](CCC(=O)O)NC(=O)C(C)(C)NC(=O)[C@@H](N)Cc1cnc[nH]1)[C@@H](C)O)[C@@H](C)O)C(C)C)C(=O)N[C@@H](C)C(=O)N[C@@H](Cc1c[nH]c2ccccc12)C(=O)N[C@@H](CC(C)C)C(=O)N[C@H](C(=O)N[C@@H](CCCNC(=N)N)C(=O)NCC(=O)N[C@@H](CCCNC(=N)N)C(=O)NCC(=O)O)C(C)C; assay = LC-MS/MS; system = healthy fasting men, plasma; setting = oral, 10 mg, taken with 50 mL water; endpoint = tmax; result = 1.5 h

Repeated from above:
SMILES = CC[C@H](C)[C@H](NC(=O)[C@H](Cc1ccccc1)NC(=O)[C@H](CCC(=O)O)NC(=O)[C@H](CCCCNC(=O)COCCOCCNC(=O)COCCOCCNC(=O)CC[C@H](NC(=O)CCCCCCCCCCCCCCCCC(=O)O)C(=O)O)NC(=O)[C@H](C)NC(=O)[C@H](C)NC(=O)[C@H](CCC(N)=O)NC(=O)CNC(=O)[C@H](CCC(=O)O)NC(=O)[C@H](CC(C)C)NC(=O)[C@H](Cc1ccc(O)cc1)NC(=O)[C@H](CO)NC(=O)[C@H](CO)NC(=O)[C@@H](NC(=O)[C@H](CC(=O)O)NC(=O)[C@H](CO)NC(=O)[C@@H](NC(=O)[C@H](Cc1ccccc1)NC(=O)[C@@H](NC(=O)CNC(=O)[C@H](CCC(=O)O)NC(=O)C(C)(C)NC(=O)[C@@H](N)Cc1cnc[nH]1)[C@@H](C)O)[C@@H](C)O)C(C)C)C(=O)N[C@@H](C)C(=O)N[C@@H](Cc1c[nH]c2ccccc12)C(=O)N[C@@H](CC(C)C)C(=O)N[C@H](C(=O)N[C@@H](CCCNC(=N)N)C(=O)NCC(=O)N[C@@H](CCCNC(=N)N)C(=O)NCC(=O)O)C(C)C; system = Japanese subjects; setting = subcutaneous once weekly, 1.0 mg, median; endpoint = tmax at steady state; result = 36 h
